Published values collected from several papers.
Lines come from different studies, so protocols differ. ± marks the error that the study gave.

| SMILES | assay | system | setting | scale | endpoint | result |
| --- | --- | --- | --- | --- | --- | --- |
| CCN(CC)c1ccc2c(-c3ccccc3C(=O)OCCOCCOCC[18F])c3ccc(=[N+](CC)CC)cc-3oc2c1 |  | rat, gut | dose not given, 60 min post injection |  | tissue uptake | 0.44 ± 0.09 %ID/g |
| O=C(O)c1cccc(S(=O)(=O)Nc2ccccc2)c1 |  | human, normal liver function, plasma | intravenous, 400 mg/m^2 belinostat, cycle 1 day -7, geometric mean | baseline: metabolite over belinostat | AUC(0-inf) metabolic ratio | 1.24 |
| [2H]C([2H])([2H])Oc1cc2c(cc1OC([2H])([2H])[2H])[C@H]1CC(=O)[C@H](CC(C)C)CN1CC2 | refers to: headache | human | oral, 25 mg |  | subjects with adverse event | 9.5% |
| Cc1cc(O)cc(O)c1C(=O)c1c2c3c(c(O)cc(C)c3oc1=O)C(=O)c1c(O)cc(O)cc1-2 |  | Caco-2 | 400 µM, 3 h, pH 7.4 |  | Papp B→A | 0.008 ×10⁻⁶ cm/s |
| Nc1nccc(-c2cn(C3CC3)c3ccccc23)n1 | radio-HPLC, co-eluting peaks pooled | human male, urine | oral, 110 mg, 0 to 96 h, sample holds 4.16% dose | baseline: dose | excreted amount | 0.02% |
| CN(C(=O)Cn1c(=O)oc2ccc(-c3ccc(OCC[18F])cc3)cc21)c1ccccc1 |  | ischemic Sprague-Dawley rats, brain | intravenous, 10 MBq radiolabelled, 30 min |  | intact parent fraction | 83.2 ± 7.4% |
| COc1ccc(-c2csc(N/N=C(\C)c3cc(O)cc(O)c3)n2)cc1 |  | stock and working solutions | concentration not given, 3 months, refrigerated, long-term storage |  | deviation from initial concentration | < 10% |
| Cc1ccc(OCC(=O)N(Cc2cccs2)c2ccn[nH]2)cc1 |  | female Sprague-Dawley rat, plasma | oral, 100 mg/kg, single dose |  | Tmax | 30 min |
| CCc1c2c(nc3ccc(O)cc13)-c1cc3c(c(=O)n1C2)COC(=O)[C@]3(O)CC |  | human patients, plasma | intravenous, 56 mg/m^2 of parent drug |  | Tmax | 81.6 min |
| CC[C@@H](C)[C@@H](NC(=O)[C@@H](C)NC(=O)[C@@H](CCCCN)NC(=O)[C@@H](CC(C)C)NC(=O)[C@@H](C)NC(=O)[C@H](NC(=O)[C@@H](CCCCN)NC(=O)[C@@H](CC(C)C)NC(=O)[C@H](NC(=O)[C@@H](CCCCN)NC(=O)[C@@H](CCCCN)NC(=O)[C@@H](CCCCN)NC(=O)[C@@H](C)NC(=O)[C@@H](CCCCN)NC(=O)[C@@H](CO)NC(=O)[C@@H](Cc1ccccc1)NC(=O)[C@H](NC(=O)[C@@H](CCCCN)NC(=O)[C@@H](CC(C)C)NC(=O)[C@@H](Cc1ccccc1)NC(=O)[C@@H](CO)NC(=O)[C@@H](CCCCN)NC(=O)[C@@H](Cc1c[nH]c2ccccc12)NC(=O)[C@@H](CCCCN)NC(C)=O)[C@H](C)O)C(C)C)[C@H](C)O)C(=O)N[C@H](CO)C(=O)N[C@H](CCCCN)C(N)=O | circular dichroism | aqueous buffer | pH 7.0, 5 °C | baseline: reference peptide in TFE | helical content | 2% |
| Cn1c(=O)oc2ccc(-c3ccc(CC(C#N)NC(=O)C4CNCCCO4)c(F)c3)cc21 (centres unmarked) | refers to: blood triglycerides increased | human | 40 mg, treatment-related, single dose, fasted |  | subjects with adverse event | 25% |
| Oc1cc(C(F)(F)F)ccc1-c1nc2c(C(F)(F)F)cc(C(F)(F)F)cc2[nH]1 | hemolysis | defibrinated sheep blood |  |  | HC50 | 252 µM |
| C[Si](C)(C)C[C@@H](CN)CC(=O)O |  | Sprague-Dawley rat, male, brain | oral, 30 mg/kg, estimated as Cmax x Kp |  | brain Cmax | 1500 nM |
| Oc1cc(F)ccc1Oc1ccccc1 |  | CD-1 mice, plasma | subcutaneous, 100 mg/kg |  | absorption rate constant | 3.5 ± 2.5 h⁻¹ |
| CC(C)[C@H](NC(=O)[C@@H]1CCCN1C(=O)[C@H](CCCNC(=N)N)NC(=O)[C@H](CS)NC(=O)[C@H](Cc1c[nH]c2ccccc12)NC(=O)[C@H](CCCNC(=N)N)NC(=O)[C@@H](Cc1ccccc1)NC(=O)[C@H](Cc1c[nH]cn1)NC(=O)[C@H](CCC(=O)O)NC(=O)[C@H](CS)NC(=O)[C@H](CS)NC(=O)CNC(=O)[C@@H]1CC(=O)N[C@@H](CCCNC(=N)N)C(=O)NCC(=O)N[C@@H](CC(=O)O)C(=O)N[C@H](Cc2ccc(O)cc2)C(=O)N1)C(N)=O [technetium-99m labelled] |  | C57 mouse, female, B16/F1 melanoma | intravenous, 0.037 MBq, 0.5 h | baseline: tumour over kidneys | tumour to tissue ratio | 0.28 |
| O=C(CCc1ccc(CNC(C(=O)OC2CCCC2)C2CCCCC2)cn1)NO (centres unmarked) |  | human, plasma | oral, 40 mg once daily, day 1, median |  | Tmax | 37.5 min |

| SMILES | assay | system | setting | scale | endpoint | result |
| --- | --- | --- | --- | --- | --- | --- |
| CC(C)(O)c1ncc([S@](N)(=O)=NC(=O)Nc2c3c(cc4c2CCC4)CCC3)s1 |  | healthy human fasted, plasma | oral, 300 mg single dose, spray-dried dispersion |  | AUC(0-last) | 327 µg·h/mL |
| COc1cccc(C=NCCCN(C)CCN(C)CCCN=Cc2cccc(OC)c2[O-])c1[O-].[67Ga+3] |  | rat | intravenous, 1 min | baseline: heart over lung | tissue uptake ratio | 1.85 ± 0.17 |
| N=C(N)NCCC[C@@H]1NC(=O)[C@H](Cc2c[nH]c3ccccc23)NC(=O)[C@@H](CC2CCCCC2)NC(=O)[C@@H]2CCCN2C(=O)[C@@H](NC(=O)CCc2ccccc2)CCCNC1=O |  | C57BL/6J mice, brain | oral, 1 mg/kg, two-compartment model |  | absorption rate constant | 11.3 h⁻¹ |
| Cc1ccc([C@@H]2O[C@H](CO)[C@@H](O)[C@H](O)[C@H]2O)cc1Cc1ccc(-c2ccc(F)cc2)s1 |  | albino rabbit, plasma | oral or sublingual |  | elimination rate constant | 5.28e-06 ± 2.78e-07 s⁻¹ |
| CC(C)c1cnc(-c2cc(Cl)ccc2F)cc1Nc1ccncc1C(=O)NC(CO)CO | monotherapy, refers to: fatigue | human patients | oral, dose not given, grade 1, phase I A |  | patients with treatment-related adverse event | 7.1% |
| C#CCOc1ccc(/C=C2\SC(=O)N(CC(=O)NCc3ccccc3)C2=O)cc1 | inverse Kirkwood-Buff integrals | binary solvent mixture | 298.15 K, mole fraction x1 0.65 |  | Kirkwood-Buff integral G2,3 | -366 cm³/mol |
| COc1ccnc(C[S+]([O-])c2nc3cc(-n4cccc4)ccc3[nH]2)c1C (centres unmarked) |  | male Sprague Dawley rats, plasma | oral, 5 mg/kg of ilaprazole racemate |  | Vz/F | 42.7 ± 68.3 L/kg |
| C#CCN(CCCNC(=O)CCCCC[N+]1=C(/C=C/C2=C(Cl)C(=C/C=C3\N(CCCCCC(=O)[O-])c4ccccc4C3(C)C)/CCC2)C(C)(C)c2ccccc21)CCCOc1ccc(Cl)cc1Cl |  | mouse plasma | 0.01 µg/mL nominal, 3 freeze-thaw cycles at -80 °C |  | concentration | 9.5 ± 0.9 ng/mL |
| COc1cc(N(C)CCN(C)C)c(NC(=O)CCSCC(NC(C)=O)C(=O)O)cc1Nc1nccc(-c2cn(C3CC3)c3ccccc23)n1 (centres unmarked) | radio-HPLC, co-eluting peaks pooled | human, feces | 0 to 240 h, sample holds 81.99% dose | baseline: dose | excreted amount | 2.04% |
| [11CH3]c1ccc2nc(C3CCC3)n(-c3ccc4[nH]ncc4c3)c2n1 |  | human male, spleen |  |  | absorbed radiation dose | 2.1 µSv/MBq |
| CC[C@H](C)[C@H](NC(=O)[C@H](C)NC(=O)[C@@H](NC(=O)[C@H](C)NC(=O)CNC(=O)OCC1c2ccccc2-c2ccccc21)[C@@H](C)O)C(=O)N[C@@H](CCCCN)C(=O)N[C@@H](CCC(N)=O)C(=O)N[C@H](C(=O)N[C@@H](CCCCN)C(=O)N[C@@H](CCCCN)C(=O)N[C@@H](CC(C)C)C(=O)N[C@@H](Cc1ccccc1)C(=O)N[C@@H](CCCCN)C(=O)N[C@@H](CCCCN)C(=O)N[C@@H](CCCCN)C(=O)NCC(=O)NCC(N)=O)C(C)C | reversed-phase HPLC | C18 column | hydrophobicity |  | acetonitrile at elution | 59% |
| COc1cc(NC(C)=O)c2c(c1O)-c1c(OC)c(OC)cc3c1C(C2)N(C)CC3 (centres unmarked) |  | rat, processed plasma samples | 0.5 µg/mL, 24 h, room temperature, post-preparative storage |  | remaining compound | 121 ± 3.2% |
| O=c1nc(NO)ccn1[C@@H]1O[C@H](CO)[C@@H](O)[C@H]1O | Western blot, refers to: CYP2C19 | rat, normal, liver | oral, 80 mg/kg twice daily, 5 days | baseline: control group | protein level | 1.3 fold |
| COCCOCCOCCOCCC(=O)NCc1cc(CNC(=O)CCOCCOCCOCCOC)cc(-c2cc3cc4nc(c(-c5ccc(CCC(=O)O)cc5)c5[nH]c(cc6nc(c(OC)c2[nH]3)CC6(C)C)cc5-c2cc(CNC(=O)CCOCCOCCOCCOC)cc(CNC(=O)CCOCCOCCOCCOC)c2)CC4(C)C)c1 |  | water with 5% DMF | room temperature |  | kic^−1 | 6 ns |
| Cc1cc2c(cc1C1(c3ncc(C(=O)O)cn3)CC1)C(C)(C)CCC2(C)C |  | Sprague-Dawley rat, male | oral, 100 mg/kg, 12 h, sesame oil vehicle |  | blood triglycerides | 136 ± 22.2 mg/dL |
| CC(=O)N[C@H](CC(=O)O)C(=O)N[C@H](Cc1c[nH]c2ccccc12)C(=O)N[C@H](Cc1ccccc1)C(=O)N[C@H](CCCCN)C(=O)N[C@H](C)C(=O)N[C@H](Cc1ccccc1)C(=O)N[C@H](Cc1ccc(O)cc1)C(=O)N[C@H](CC(=O)O)C(=O)N[C@H](CCCCN)C(=O)N[C@@H](C(=O)N[C@H](C)C(=O)N[C@H](CCC(=O)O)C(=O)N[C@H](CCCCN)C(=O)N[C@H](Cc1ccccc1)C(=O)N[C@H](CCCCN)C(=O)N[C@H](CCC(=O)O)C(=O)N[C@H](C)C(=O)N[C@H](Cc1ccccc1)C(N)=O)C(C)C |  | statin-treated high-risk CHD women, plasma | oral, 100 mg daily, day 13, 0 to 8 h, mean, undetectable set to 0 |  | Cmax | 2.25 ng/mL |
